Measurements pooled from the literature.
Compare with care: the assays were run in different laboratories. ± gives the spread as reported.
KDR: Vascular endothelial growth factor receptor 2 (KDR, Homo sapiens, UniProt P35968)
CTSL: Procathepsin L (CTSL, Homo sapiens, UniProt P07711)
PDGFRB: Platelet-derived growth factor receptor beta (PDGFRB, Homo sapiens, UniProt P09619)
NMBR: Neuromedin-B receptor (NMBR, Homo sapiens, UniProt P28336)
ERN2 RNase domain: Serine/threonine-protein kinase/endoribonuclease IRE2, RNase domain (ERN2, Homo sapiens, UniProt Q76MJ5)
EGLN1: Egl nine homolog 1 (EGLN1, Homo sapiens, UniProt Q9GZT9)
Nucleoside transporter 1: Nucleoside transporter 1 (Plasmodium vivax, UniProt A5K8B0)
ALDH1A1: Aldehyde dehydrogenase 1A1 (ALDH1A1, Homo sapiens, UniProt P00352)

Structure (SMILES)	target	assay	system	setting	IC50
COc1cc2nccc(Oc3ccc(NC(=S)NC4CC4)c(Cl)c3)c2cc1C(=O)NC1CC1	KDR	–	–	–	116 nM
O=C(O)c1ccc(Cn2sc3ccccc3c2=O)cc1	HDAC5 (Homo sapiens, UniProt Q9UQL6)	enzyme activity, inhibitor	–	–	3300 nM
O=C(NCCc1ccc(OS(=O)(=O)O)c(Br)c1)/C(Cc1ccc(O)c(Br)c1)=N/O	Ryanodine receptor 1, with FKBP12 (RYR1, Oryctolagus cuniculus, UniProt P11716)	binding, antagonist	rabbit skeletal muscle SR vesicles	3.5 h, pH 7.4, 37 °C, with: [3H]ryanodine 1 nM	13000 nM
O=C(NC1CCCC1)c1cccc(S(=O)(=O)NC2CCCC2)c1	Ectonucleoside triphosphate diphosphohydrolase 2 (Homo sapiens, UniProt Q9Y5L3)	enzyme activity, inhibitor, absorbance	–	–	46900 nM
Cc1ccc(CNC(=O)C(CCc2ccccc2)NC(=O)C(NC(=O)Cc2cccc(Oc3ccccc3)c2)C(C)O)cc1 (stereo not shown)	PSMB6/PSMB7 (Homo sapiens, UniProt P28072+Q99436)	inhibitor	–	–	48000 nM
CC(C)(F)CCN(Cc1ccc(F)cc1)c1nc(C#N)nc(N2CCOCC2)n1	CTSL	enzyme activity, inhibitor, fluorescence	–	–	26 nM
COc1cc2nccc(Oc3cc(F)c(NC(=S)NC4CC4)c(F)c3)c2cc1C(N)=O	KDR	–	–	–	64 nM
CC(C)=CCN=C(N)NCCC[C@@H](NC(=O)CCCc1ccc(O)cc1)C(=O)N[C@@H](Cc1ccccc1)C(O)CC(=O)N[C@@H](Cc1ccc(O)cc1)C(=O)O (stereo in doubt)	MMP2 (Homo sapiens, UniProt P08253)	enzyme activity, inhibitor	–	–	37000 nM
COc1cc2nccc(Oc3ccc(NC(=S)NCC4CC4)c(Cl)c3)c2cc1C(N)=O	PDGFRB	–	–	–	31.1 nM
O=C1O[C@H]([C@H](O)c2ccc(O)cc2)c2cccc(O)c21	MAL12 (Saccharomyces cerevisiae S288c, UniProt P53341)	enzyme activity, inhibitor, absorbance	–	–	21900 nM
COc1ccc(-c2c[nH]c3ccnc(Nc4ccc(Oc5ccnc6cc(OC)c(OC)cc56)c(F)c4)c3c2=O)cc1	MET (Homo sapiens, UniProt P08581)	kinase activity, inhibitor, HTRF	–	–	1000 nM
O=C1NC(=O)C(C2CCOc3cc(Oc4ccc(C(F)(F)F)cc4Cl)ccc32)S1 (stereo not shown)	FFAR1 (Homo sapiens, UniProt O14842)	binding, SPA	CHO-K1 membranes	with: [3H]AM-1638	20 nM
CC(C)[C@H](NC(=O)[C@H](C)NC(=O)[C@H](Cc1c[nH]c2ccccc12)NC(=O)[C@H](Cc1c[nH]cn1)NC(=O)[C@H](N)Cc1ccc(O)cc1)C(=O)N[C@H](C)C(=O)N[C@@H](Cc1c[nH]cn1)C(=O)N1CCC[C@@H]1CN[C@@H](Cc1ccccc1)C(N)=O	NMBR	inositol phosphate generation, antagonist	NCI-H1299	with: neuromedin B	> 10000 nM
CC(C)C[C@@H](CC(=O)N[C@@H](Cc1ccsc1)C(N)=O)NC(=O)[C@H](CCCNC(=N)N)NC(=O)c1ccc(CNC2CCNCC2)cc1	Cyclin-A2, with CDK2 (CCNA2, Homo sapiens, UniProt P20248)	binding to cyclin groove, inhibitor, fluorescence polarization competition	–	–	> 100000 nM
C[C@H](Cc1ccc(O)c(O)c1)[C@@H](C)Cc1ccc(O)c(O)c1	Carbamate kinase (Giardia intestinalis, UniProt A8BB85)	enzyme activity, ATP luminescence	–	–	13000 nM
COC(=O)C1=CNC=C(C(=O)OC)C1c1ccc(F)c(C(F)(F)F)c1	KCNN4 (Homo sapiens, UniProt O15554, R352H)	inside-out patch clamp	–	gain-of-function mutant, with: 1 µM free Ca2+	< 20 nM
COc1ccc(C2Sc3ccccc3NC3=C2C(=O)c2ccccc23)cc1 (racemic)	Type II NADH dehydrogenase (Plasmodium falciparum, UniProt Q8I302)	enzyme activity, inhibitor, fluorescence NAD+ quantitation	recombinant enzyme	–	> 20000 nM
COc1cc2nccc(Oc3ccc(NC(=S)NCc4cccnc4)c(Cl)c3)c2cc1C(N)=O	KDR	–	–	–	128 nM
CN(C(=O)c1ccn2ncc(-c3ccc(C(N)=O)cc3)c2c1)c1ccc(C#N)cn1	SLC29A1 (Homo sapiens, UniProt Q99808)	inhibitor, radioligand binding	–	–	> 30000 nM
CSCC[C@H](NC(=O)[C@H](Cc1ccccc1)NC(=O)[C@H](Cc1c[nH]cn1)NC(=O)CNC(=O)[C@@H](NC(=O)[C@H](C)NC(=O)[C@H](Cc1c[nH]c2ccccc12)NC(=O)[C@H](CC(C)C)NC(=O)[C@@H]1CCC(=O)N1)[C@@H](C)O)C(N)=O	NMBR	NMBR activity, cell-based	–	–	< 1 nM
CCOC(=O)C(C(=O)OCC)C(c1ccccc1)(c1ccccc1)c1ccccc1	KCNN4 (Homo sapiens, UniProt O15554)	ion current, inhibitor, patch clamp	–	–	4000 nM
NC1CCC(Nc2nccc(-c3cccnc3Oc3ccc(NS(=O)(=O)c4ccccc4Cl)c4ccccc34)n2)CC1 (stereo not shown)	ERN2 RNase domain	RNase activity, inhibitor	–	with: XBP1 mini-substrate	15 ± 2 nM
O=C(O[C@H](CO)C(F)(F)F)N1C[C@@H]2[C@H](C1)[C@H]2c1ccn(-c2ccc(F)cn2)n1	Mgll (Mus musculus, UniProt O35678)	enzyme activity, ABPP with FP-rhodamine	mouse brain lysate	30 min preincubation, 37 °C	7.1 nM
COc1cc2nccc(Oc3ccc(NC(=S)NCc4ccc(F)cc4)c(Cl)c3)c2cc1C(N)=O	PDGFRB	–	–	–	85.9 nM
Oc1c(C(Nc2nccs2)c2cccc(OCc3ccccc3)c2)ccc2cccnc12 (stereo not shown)	Genome polyprotein, NS2B-NS3 protease (Dengue virus type 2, UniProt P14340)	enzyme activity, inhibitor	–	0.1% CHAPS, with: Bz-Nle-Lys-Arg-Arg-AMC substrate	2930 ± 70 nM
O=c1c2ccccc2[s+]([O-])n1-c1ccccc1 (stereo not shown)	HDAC10 (Homo sapiens, UniProt Q969S8)	enzyme activity, inhibitor	–	–	> 10000 nM

Structure (SMILES)	target	assay	system	setting	IC50
O=C(O)CCCC(=O)NNC(=O)c1nccc2ccccc12	EGLN1	inhibitor, AlphaScreen	–	bimodal curve, rough estimate, with: 2 µM 2-oxoglutarate	> 300000 nM
COc1cc2nccc(Oc3ccc(NC(=S)NCC(C)(C)O)c(Cl)c3)c2cc1C(N)=O	KDR	–	–	–	245 nM
O=C(Nc1ccc2nc(NC(=O)c3ccco3)sc2c1)c1ccco1	Nucleoside transporter 1	yeast growth	purine auxotrophic yeast expressing target	15 to 17 h, with: adenosine 1 mM	63 ± 26 nM
CC[C@H](C)[C@@H]1NC(=O)[C@H](CCCNC(=N)N)NC(=O)[C@H](CCCNC(=N)N)NC(=O)[C@H](CC(C)C)NC(=O)[C@@H](NC(=O)[C@H](C)NC(=O)[C@H](C)NC(C)=O)CSCc2ccc3c(c2)CCc2cc(ccc2-3)CSC[C@@H](C(=O)N[C@H](C(=O)N[C@@H](CC(N)=O)C(=O)N[C@@H](CC(C)C)C(=O)N[C@@H](CCCNC(=N)N)C(=O)N[C@@H](CCC(N)=O)C(=O)N[C@@H](CCCCN)C(=O)N[C@@H](CC(C)C)C(=O)N[C@@H](CC(C)C)C(=O)N[C@@H](CC(N)=O)C(N)=O)C(C)C)NC(=O)[C@H](CC(=O)O)NC(=O)CNC1=O	MCL1 (Homo sapiens, UniProt Q07820)	ligand displacement, FP	–	–	148 nM
CC(=O)C12NC(C)(C)CC1(C)C(=O)C1=C2c2c(c3c4n2C(C)(C)CC2=C4C4(CC(C)(C)NC(C)(C4)C2=O)CC3(C)C)C(=O)C(C)(C)N1 (single isomer, unassigned; (-))	KCNA3 (Homo sapiens, UniProt P22001)	ion current, inhibitor	–	–	1500 nM
C=CCCN(Cc1ccc(F)cc1)c1nc(C#N)nc(N2CCOCC2)n1	CTSL	enzyme activity, inhibitor, fluorescence	–	–	64 nM
CCOC(=O)N1CCC(Oc2nc3c(c(=O)n(C)c(=O)n3C)n2Cc2cccc(C)c2)CC1	ALDH1A1	–	–	–	213 ± 48 nM
O=C(Nc1cccc(-c2nc3ncccc3o2)c1)c1cccc(F)c1	Nucleoside transporter 1	yeast growth	purine auxotrophic yeast expressing target	15 to 17 h, with: adenosine 1 mM	396 ± 50 nM
CC(C)CCC[C@@H](C)[C@H]1CC[C@H]2[C@@H]3CC=C4C[C@@H](OS(=O)(=O)O)CC[C@]4(C)[C@H]3CC[C@]12C	Prothrombin (F2, Homo sapiens, UniProt P00734)	enzyme activity, inhibitor	–	with: hirudin peptide 0 nM	167000 ± 18900 nM
COc1cc2nccc(Oc3ccc(NC(=S)Nc4ccc(F)cc4)c(Cl)c3)c2cc1C(N)=O	KDR	–	–	–	105 nM
CC(C)(C)NCCCNC(=O)c1ccnc(Br)c1	Chromobox protein homolog 7 (Homo sapiens, UniProt O95931)	methyl-lysine reader binding, inhibitor, AlphaScreen	–	–	> 100000 nM
O=CCCC(=O)O	BBOX1 (Homo sapiens, UniProt O75936)	enzyme activity, inhibitor	–	–	267000 nM
NC1CCC(Nc2nccc(-c3cccnc3Oc3cccc4c(NS(=O)(=O)C5CCC5)cccc34)n2)CC1 (stereo not shown)	ERN2 RNase domain	RNase activity, inhibitor	–	with: XBP1 mini-substrate	14000 ± 4000 nM
CCOC(=O)/C=C/CN(CC)CCCCN1c2ccccc2CCc2ccc(Cl)cc21	E3 ubiquitin-protein ligase NEDD4, HECT domain (Homo sapiens, UniProt P46934)	ubiquitination, inhibitor, TR-FRET	–	1 h preincubation	1770 nM
COc1cc2nccc(Oc3ccc(NC(=S)NCc4ccccc4)c(Cl)c3)c2cc1C(N)=O	PDGFRB	–	–	–	361 nM
COc1ccccc1CN(CCC(C)C)c1nc(C#N)nc(N2CCOCC2)n1	CTSL	enzyme activity, inhibitor, fluorescence	–	–	67 nM
O=C1C2=C(Nc3ccccc3SC2c2ccc(F)cc2)c2ccccc21 (racemic)	Cytochrome b (MT-CYB, Homo sapiens, UniProt P00156)	enzyme activity, inhibitor	–	–	> 5000 nM
Cn1c(-c2ccccc2)c(-c2nc3ccccc3[nH]c2=O)c2ccccc21	JAK3 (Homo sapiens, UniProt P52333)	enzyme activity, inhibitor, ADP detection	–	–	20 to 28 nM
NC1CCCc2c1[nH]c1ccc(Cl)cc21 (racemic)	Metal cation symporter ZIP14, CD2 (Homo sapiens, UniProt Q15043)	transporter uptake, inhibitor, fluorescence	–	–	10600 nM
CCn1c(-c2cc(NC(=O)c3cnccn3)n[nH]2)cc2ccc(OC)cc21	CSNK2A2 (Homo sapiens, UniProt P19784)	enzyme activity, inhibitor, ADP detection	–	–	2600 nM
CC1CC(=O)N(CCCN)N=C1c1ccc(NC(=O)N2Cc3ccncc3C2)cc1 (stereo not shown)	NAMPT (Homo sapiens, UniProt P43490)	enzyme activity, inhibitor	–	–	2.9 nM
CC(=O)NCC(=O)N[C@@H](CC(=O)O)C(=O)N[C@@H](Cc1ccc(O)cc1)C(=O)N[C@@H](CO)C(=O)N[C@@H](Cc1cnc[nH]1)C(=O)N[C@H]1CSSC[C@@H](C(=O)N[C@H](C(=O)N[C@@H](Cc2ccc(O)cc2)C(=O)N2CCC[C@H]2C(=O)N[C@@H](CC(=O)O)C(=O)N2CCC[C@H]2C(=O)N[C@@H](CCC(=O)O)C(=O)NCC(=O)NCC(=O)NCC(N)=O)[C@@H](C)O)NC(=O)[C@H](CCCCN)NC(=O)[C@H](Cc2c[nH]c3ccccc23)NC(=O)[C@H](Cc2c[nH]c3ccccc23)NC(=O)[C@@H]2CCCN2C(=O)[C@H](Cc2ccc(O)cc2)NC(=O)[C@H](Cc2ccc(O)cc2)NC(=O)[C@H](CCCNC(=N)N)NC(=O)[C@H](CC(C)C)NC(=O)[C@@H]2CCCN2C(=O)[C@H](CO)NC1=O	Angiotensin-converting enzyme (Mus musculus, UniProt P09470)	enzyme activity, inhibitor	–	lysate	1580 nM
COc1ccc(-c2cc(C(F)(F)F)nc(S(=O)(=O)CCC(=O)Nc3ccc(C)cc3)n2)cc1	WRN (Homo sapiens, UniProt Q14191)	ATPase activity, inhibitor, ADP-Glo	–	with: ATP 60 µM	775 nM
Cn1c(=O)c2c(nc(OC3CCN(C(=O)C4CC4)CC3)n2Cc2cccc(Cl)c2)n(C)c1=O	ALDH1A1	–	–	–	545 ± 174 nM
O=C(O)CCC(=O)NNC(=O)c1ccncc1	EGLN1	inhibitor, AlphaScreen	–	bimodal curve, rough estimate, with: 2 µM 2-oxoglutarate	> 300000 nM
Cc1cc(NC(=O)[C@H](O)c2cc(F)cc(F)c2)ccc1-c1cnc(N)c(C(=O)NC(C)C)c1	EIF2AK4 (Homo sapiens, UniProt Q9P2K8)	enzyme activity, inhibitor, FRET	–	–	2170 nM

A few entries again:
Structure (SMILES)	target	assay	system	setting	IC50
CN(C(=O)c1ccn2ncc(-c3ccc(C(N)=O)cc3)c2c1)c1ccc(C#N)cn1	SLC29A1 (Homo sapiens, UniProt Q99808)	inhibitor, radioligand binding	–	–	> 30000 nM
CSCC[C@H](NC(=O)[C@H](Cc1ccccc1)NC(=O)[C@H](Cc1c[nH]cn1)NC(=O)CNC(=O)[C@@H](NC(=O)[C@H](C)NC(=O)[C@H](Cc1c[nH]c2ccccc12)NC(=O)[C@H](CC(C)C)NC(=O)[C@@H]1CCC(=O)N1)[C@@H](C)O)C(N)=O	NMBR	NMBR activity, cell-based	–	–	< 1 nM
CCOC(=O)C(C(=O)OCC)C(c1ccccc1)(c1ccccc1)c1ccccc1	KCNN4 (Homo sapiens, UniProt O15554)	ion current, inhibitor, patch clamp	–	–	4000 nM
NC1CCC(Nc2nccc(-c3cccnc3Oc3ccc(NS(=O)(=O)c4ccccc4Cl)c4ccccc34)n2)CC1 (stereo not shown)	ERN2 RNase domain	RNase activity, inhibitor	–	with: XBP1 mini-substrate	15 ± 2 nM
